Experimental data of several laboratories.
Numbered parts are unrelated; each lists some results of a single study.
Sequence of UniProt O14757 (whole entry, looked up): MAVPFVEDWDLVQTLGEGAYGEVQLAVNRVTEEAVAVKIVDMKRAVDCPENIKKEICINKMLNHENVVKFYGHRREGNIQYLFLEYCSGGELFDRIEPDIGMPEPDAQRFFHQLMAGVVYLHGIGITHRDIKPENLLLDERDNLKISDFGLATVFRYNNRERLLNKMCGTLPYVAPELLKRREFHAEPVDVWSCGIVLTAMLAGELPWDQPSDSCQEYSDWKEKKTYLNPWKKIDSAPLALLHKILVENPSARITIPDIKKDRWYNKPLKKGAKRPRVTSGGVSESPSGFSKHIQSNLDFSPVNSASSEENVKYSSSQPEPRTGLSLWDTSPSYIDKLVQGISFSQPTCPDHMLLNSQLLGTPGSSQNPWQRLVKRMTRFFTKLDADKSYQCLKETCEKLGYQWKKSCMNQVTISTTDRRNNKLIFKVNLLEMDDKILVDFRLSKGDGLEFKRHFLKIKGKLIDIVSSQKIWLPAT
Sequence of UniProt P15056 (whole entry, unmodified, looked up): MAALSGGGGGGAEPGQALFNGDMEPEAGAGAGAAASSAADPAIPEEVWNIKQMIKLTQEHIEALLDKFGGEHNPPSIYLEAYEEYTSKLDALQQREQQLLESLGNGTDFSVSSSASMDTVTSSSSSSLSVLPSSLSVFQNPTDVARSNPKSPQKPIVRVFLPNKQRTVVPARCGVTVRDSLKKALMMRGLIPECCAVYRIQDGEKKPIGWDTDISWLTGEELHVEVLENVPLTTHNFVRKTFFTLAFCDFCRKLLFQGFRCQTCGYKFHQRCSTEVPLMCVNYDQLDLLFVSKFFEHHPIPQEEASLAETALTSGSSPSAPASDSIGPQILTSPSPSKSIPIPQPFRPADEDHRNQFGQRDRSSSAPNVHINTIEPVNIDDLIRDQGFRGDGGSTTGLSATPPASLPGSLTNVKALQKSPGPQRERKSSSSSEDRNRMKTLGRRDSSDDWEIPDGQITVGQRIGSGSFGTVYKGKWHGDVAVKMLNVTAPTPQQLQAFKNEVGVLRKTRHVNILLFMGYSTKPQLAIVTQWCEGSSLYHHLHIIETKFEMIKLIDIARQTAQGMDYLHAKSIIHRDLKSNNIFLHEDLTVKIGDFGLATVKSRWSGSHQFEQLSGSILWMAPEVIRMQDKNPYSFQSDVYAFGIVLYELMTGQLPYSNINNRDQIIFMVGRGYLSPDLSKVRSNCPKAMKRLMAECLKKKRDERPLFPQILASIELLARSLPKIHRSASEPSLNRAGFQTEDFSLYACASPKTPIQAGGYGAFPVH
Sequence of UniProt Q5VT25 (whole entry, looked up): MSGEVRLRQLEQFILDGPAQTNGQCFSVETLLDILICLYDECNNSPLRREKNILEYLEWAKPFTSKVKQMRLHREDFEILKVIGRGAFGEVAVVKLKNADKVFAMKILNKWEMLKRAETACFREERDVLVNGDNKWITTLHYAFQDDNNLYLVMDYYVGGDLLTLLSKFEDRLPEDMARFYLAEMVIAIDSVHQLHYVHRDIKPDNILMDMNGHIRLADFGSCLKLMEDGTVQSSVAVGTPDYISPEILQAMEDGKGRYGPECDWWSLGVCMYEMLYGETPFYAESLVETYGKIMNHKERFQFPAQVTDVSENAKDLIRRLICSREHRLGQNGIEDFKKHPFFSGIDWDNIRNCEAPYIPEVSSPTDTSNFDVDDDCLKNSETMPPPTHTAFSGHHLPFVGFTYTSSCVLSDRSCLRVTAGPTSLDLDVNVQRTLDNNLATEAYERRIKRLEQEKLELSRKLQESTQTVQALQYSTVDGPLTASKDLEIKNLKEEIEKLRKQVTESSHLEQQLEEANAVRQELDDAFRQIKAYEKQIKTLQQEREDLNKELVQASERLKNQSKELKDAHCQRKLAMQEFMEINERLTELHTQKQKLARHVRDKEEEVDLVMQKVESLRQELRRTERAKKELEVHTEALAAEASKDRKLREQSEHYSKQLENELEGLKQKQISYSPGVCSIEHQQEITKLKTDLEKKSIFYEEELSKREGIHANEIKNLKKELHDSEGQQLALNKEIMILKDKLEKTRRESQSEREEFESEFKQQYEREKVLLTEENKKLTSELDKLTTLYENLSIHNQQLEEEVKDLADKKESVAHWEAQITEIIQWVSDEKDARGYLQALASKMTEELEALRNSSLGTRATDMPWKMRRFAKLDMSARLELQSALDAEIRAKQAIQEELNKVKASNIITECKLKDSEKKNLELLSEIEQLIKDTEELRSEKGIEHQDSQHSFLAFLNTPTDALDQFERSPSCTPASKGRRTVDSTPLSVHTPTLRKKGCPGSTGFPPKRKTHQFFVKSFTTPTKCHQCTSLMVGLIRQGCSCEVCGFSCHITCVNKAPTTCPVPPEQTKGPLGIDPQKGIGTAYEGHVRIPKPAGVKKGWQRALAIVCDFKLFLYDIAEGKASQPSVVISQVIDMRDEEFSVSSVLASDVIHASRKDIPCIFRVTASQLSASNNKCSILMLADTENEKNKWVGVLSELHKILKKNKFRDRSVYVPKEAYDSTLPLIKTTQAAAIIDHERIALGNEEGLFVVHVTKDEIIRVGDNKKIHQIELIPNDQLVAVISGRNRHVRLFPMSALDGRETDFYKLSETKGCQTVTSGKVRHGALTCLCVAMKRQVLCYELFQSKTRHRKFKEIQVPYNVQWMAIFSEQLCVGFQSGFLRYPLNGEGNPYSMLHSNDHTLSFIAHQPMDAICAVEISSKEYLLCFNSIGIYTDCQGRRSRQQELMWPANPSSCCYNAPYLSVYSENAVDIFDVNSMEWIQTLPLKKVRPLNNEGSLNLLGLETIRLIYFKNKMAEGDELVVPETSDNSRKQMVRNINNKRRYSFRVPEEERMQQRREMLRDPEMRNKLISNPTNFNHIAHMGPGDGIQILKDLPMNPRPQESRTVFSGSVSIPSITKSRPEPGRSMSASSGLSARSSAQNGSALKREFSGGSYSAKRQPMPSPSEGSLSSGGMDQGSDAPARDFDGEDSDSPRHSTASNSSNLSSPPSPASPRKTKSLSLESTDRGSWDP
Sequence of UniProt O95835 (whole entry, looked up): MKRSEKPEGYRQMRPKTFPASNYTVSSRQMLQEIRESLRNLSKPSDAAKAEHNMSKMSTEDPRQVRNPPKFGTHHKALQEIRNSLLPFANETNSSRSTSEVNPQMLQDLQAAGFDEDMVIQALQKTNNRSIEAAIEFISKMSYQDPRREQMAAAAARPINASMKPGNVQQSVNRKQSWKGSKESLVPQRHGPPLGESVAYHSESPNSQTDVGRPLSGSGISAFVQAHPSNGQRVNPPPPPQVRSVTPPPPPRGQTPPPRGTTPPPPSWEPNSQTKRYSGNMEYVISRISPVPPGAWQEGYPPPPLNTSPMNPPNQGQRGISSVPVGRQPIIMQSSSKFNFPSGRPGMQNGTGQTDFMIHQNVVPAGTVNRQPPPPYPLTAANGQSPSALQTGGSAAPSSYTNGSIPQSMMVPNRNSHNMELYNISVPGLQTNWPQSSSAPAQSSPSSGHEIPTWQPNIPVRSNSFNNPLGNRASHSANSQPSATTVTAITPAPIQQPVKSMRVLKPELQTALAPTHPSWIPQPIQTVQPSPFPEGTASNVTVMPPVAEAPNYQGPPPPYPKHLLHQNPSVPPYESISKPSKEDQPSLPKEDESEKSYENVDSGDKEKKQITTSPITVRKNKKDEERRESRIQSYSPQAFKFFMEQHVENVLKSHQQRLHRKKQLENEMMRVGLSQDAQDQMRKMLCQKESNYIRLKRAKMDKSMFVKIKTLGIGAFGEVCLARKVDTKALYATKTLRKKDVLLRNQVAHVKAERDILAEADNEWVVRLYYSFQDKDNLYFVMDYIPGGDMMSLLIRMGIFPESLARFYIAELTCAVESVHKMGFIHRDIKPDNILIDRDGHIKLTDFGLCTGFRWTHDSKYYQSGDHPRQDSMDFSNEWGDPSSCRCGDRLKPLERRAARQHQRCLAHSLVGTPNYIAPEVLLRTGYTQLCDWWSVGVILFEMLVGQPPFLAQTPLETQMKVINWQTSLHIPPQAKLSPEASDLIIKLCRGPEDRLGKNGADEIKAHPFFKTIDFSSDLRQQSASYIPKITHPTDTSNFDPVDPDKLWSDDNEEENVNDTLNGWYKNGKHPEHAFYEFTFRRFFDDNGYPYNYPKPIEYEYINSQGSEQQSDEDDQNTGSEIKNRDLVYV
Sequence of UniProt Q9Y6E0 (whole entry, looked up): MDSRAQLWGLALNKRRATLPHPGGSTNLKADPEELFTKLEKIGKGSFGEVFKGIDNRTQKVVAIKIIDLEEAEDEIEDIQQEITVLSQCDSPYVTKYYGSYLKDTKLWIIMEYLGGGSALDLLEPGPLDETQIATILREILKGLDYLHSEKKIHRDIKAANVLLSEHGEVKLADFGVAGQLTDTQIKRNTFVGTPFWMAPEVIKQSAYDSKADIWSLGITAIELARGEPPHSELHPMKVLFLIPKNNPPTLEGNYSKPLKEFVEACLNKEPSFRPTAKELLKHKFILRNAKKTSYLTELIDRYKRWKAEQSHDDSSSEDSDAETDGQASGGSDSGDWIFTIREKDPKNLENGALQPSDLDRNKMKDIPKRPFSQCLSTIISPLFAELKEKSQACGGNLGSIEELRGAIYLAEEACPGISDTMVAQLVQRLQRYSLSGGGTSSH
Sequence of UniProt P49840 (whole entry, looked up): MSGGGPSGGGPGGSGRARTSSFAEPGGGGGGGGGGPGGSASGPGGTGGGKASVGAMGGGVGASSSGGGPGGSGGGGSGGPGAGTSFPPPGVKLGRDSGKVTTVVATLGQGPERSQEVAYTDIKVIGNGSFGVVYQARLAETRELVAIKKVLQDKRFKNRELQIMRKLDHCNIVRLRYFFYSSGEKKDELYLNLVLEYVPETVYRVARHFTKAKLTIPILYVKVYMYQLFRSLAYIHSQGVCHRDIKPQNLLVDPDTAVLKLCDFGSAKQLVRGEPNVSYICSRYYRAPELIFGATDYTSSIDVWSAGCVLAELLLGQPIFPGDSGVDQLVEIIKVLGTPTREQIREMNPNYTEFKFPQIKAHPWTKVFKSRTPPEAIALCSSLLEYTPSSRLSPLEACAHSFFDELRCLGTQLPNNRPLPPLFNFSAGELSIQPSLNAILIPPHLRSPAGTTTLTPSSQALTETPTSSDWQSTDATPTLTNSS

Set 1
SMILES: CO[C@H]1CC[C@H](CNc2ccc(S(=O)(=O)NC(=O)c3ccc(N4CCN(CC5=C(c6ccc(Cl)cc6)CC(C)(C)CC5)CC4)cc3Oc3cnc4[nH]ccc4c3)cc2[N+](=O)[O-])CC1
Tested at: 1 µM
| target | test | remaining binding [%] |
| --- | --- | --- |
| CDC42BPA (Homo sapiens, UniProt Q5VT25) | cell-free assay, competition with immobilised ligand | 56 |
| DAPK2 (Homo sapiens, UniProt Q9UIK4) | cell-free assay, competition with immobilised ligand | 75 |
| Tyrosine-protein kinase ABL1, phosphorylated (ABL1, Homo sapiens, UniProt P00519, F317I) | binding | 100 |
| LATS1 (Homo sapiens, UniProt O95835) | cell-free assay, competition with immobilised ligand | 87 |
| PIK3CA (Homo sapiens, UniProt P42336, E545A) | cell-free assay, competition with immobilised ligand | 67 |
| EGFR (Homo sapiens, UniProt P00533, G719C) | cell-free assay, competition with immobilised ligand | 67 |
| STK24 (Homo sapiens, UniProt Q9Y6E0) | cell-free assay, competition with immobilised ligand | 75 |
| BRAF (Homo sapiens, UniProt P15056, V600E) | cell-free assay, competition with immobilised ligand | 93 |
| STK35 (Homo sapiens, UniProt Q8TDR2) | cell-free assay, competition with immobilised ligand | 93 |
| PI4KB (Homo sapiens, UniProt Q9UBF8) | cell-free assay, competition with immobilised ligand | 97 |
| ANKK1 (Homo sapiens, UniProt Q8NFD2) | cell-free assay, competition with immobilised ligand | 81 |
| CHEK1 (Homo sapiens, UniProt O14757) | cell-free assay, competition with immobilised ligand | 90 |
| GSK3A (Homo sapiens, UniProt P49840) | cell-free assay, competition with immobilised ligand | 100 |
| PTK2 (Homo sapiens, UniProt Q05397) | cell-free assay, competition with immobilised ligand | 100 |

Set 2
Target: Max dimerization protein 1, bHLH-zipper, MAX partner unstated (MXD1, Homo sapiens, UniProt Q05195, residues 56-136)
Method: protein-binding microarray
Molecule type: double-stranded DNA, one strand shown
Medium: in vitro
Tested at: not given
Notes: k-mer, scored over probes, only values ≥0.25
Direction: higher = stronger binding
Residues (chain): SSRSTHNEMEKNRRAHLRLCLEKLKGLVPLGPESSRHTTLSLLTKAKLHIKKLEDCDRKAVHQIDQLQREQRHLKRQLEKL
| Sequence | E-score |
| --- | --- |
| ATGCGGTA | 0.263 |
| CCATGAGG | 0.4 |
| CGCCACAC | 0.316 |
| CACATGAG | 0.385 |
| ATGCCCAC | 0.291 |
| CGGGGGGA | 0.255 |
| CCATGCCC | 0.351 |
| GCGTGTGA | 0.354 |

Set 3
Target: Sal-like protein 4, full length isoform B (SALL4, Homo sapiens, UniProt Q9UJQ4-2, residues 1-616)
Method: universal PBM
Molecule type: double-stranded DNA, one strand shown
Medium: in vitro
Tested at: not given
Notes: 8-mer, flanks averaged, mean of replicates
Direction: higher = stronger binding
| Sequence | E-score |
| --- | --- |
| GGTAAGCA | -0.0508 |
| AGATTGTA | 0.224 |
| CGAGCGCC | -0.427 |
| GTTCTAGA | 0.0247 |
| CGTAGACC | -0.21 |
| AAAGCCGG | -0.128 |
| CACTCAAC | 0.127 |
| GCAGTCGC | -0.201 |

Further values, each from its own experiment
| Compound | test | test system | setting | measurement | result |
| --- | --- | --- | --- | --- | --- |
| CC(C)n1cnc(-c2ccc(F)cc2)c1-c1ncc(C(=O)Nc2ccc(N3CCN(C)CC3)cc2)[nH]1 | phase 2a clinical trial, measured: first degree atrioventricular block | patients with idiopathic pulmonary fibrosis | 30 mg once daily, Grade 4 | patients with treatment-emergent adverse events | 0% |
| C=CCOc1ccccc1C1CC(O)=Nc2c1c(C)nn2-c1ccc(O)nn1 (centres unmarked) |  | human, microsomes or S9 | 2 µM, 0.5 h | remaining compound | 13.5% |

For quick reference, copied from above (set 3):
| Sequence | E-score |
| --- | --- |
| GTTCTAGA | 0.0247 |
| AGATTGTA | 0.224 |
| AAAGCCGG | -0.128 |
